Measurements of several laboratories.
Numbered parts are unrelated; each lists some results of a single study.

Series 1
Target: Histone acetyltransferase KAT6A, winged helix 1, GST fusion (KAT6A, Homo sapiens, UniProt Q92794, residues 1-85)
Method: protein binding microarray
Form: double-stranded DNA, one strand shown
Matrix: in vitro
Tested at: not given
Setting: 8-mer, flanks averaged, mean of 2 arrays, mostly near background
Relative to: not given
Direction: higher = stronger binding
Construct (chain): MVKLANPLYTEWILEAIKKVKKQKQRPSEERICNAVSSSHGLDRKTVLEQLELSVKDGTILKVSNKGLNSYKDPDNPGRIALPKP
Sequence | E-score
AGCCCCAC | -0.237
ACGACTTC | -0.059
CATACCGC | 0.329
CACCAGAC | -0.185
ATACGATA | -0.0645
ATCTTGCC | 0.00085
CAACGATG | -0.288
CACAGAGA | -0.13
GCACCGGC | 0.323
ATTTCGTC | -0.00971
AGTGCAAC | -0.143
CGATAGTA | 0.0575
AAGAGCAT | -0.117
AATTTCGG | 0.0734
ATATGAGC | -0.0703
ACTCGCCA | -0.163
GCACGTAA | -0.000645
AATGTATA | -0.135
GTCTGAGA | -0.108
GGCGAAAC | -0.00443
AGATTATG | -0.0129
CTAGCCGA | 0.112
GCTAGAGA | -0.123
GTGCTGAA | -0.202
GGTCGCGA | 0.246

Series 2
Target: Interferon regulatory factor 3, full length, phosphomimetic (IRF3, Homo sapiens, UniProt Q14653, residues 1-427, S386D/S396D/S398D/S402D/T404D/S405D)
Method: protein-binding microarray
Form: double-stranded DNA, one strand shown
Matrix: in vitro
Tested at: 2540 nM top
Setting: 60-bp whole probe
Added: salmon DNA 0.4 mg/ml
Relative to: random background probes
Direction: higher = stronger binding
All sequences stand within: GCCTAGCAC … GTCTTGATTCGCTTGACGCTGCTG
Target sequence (chain): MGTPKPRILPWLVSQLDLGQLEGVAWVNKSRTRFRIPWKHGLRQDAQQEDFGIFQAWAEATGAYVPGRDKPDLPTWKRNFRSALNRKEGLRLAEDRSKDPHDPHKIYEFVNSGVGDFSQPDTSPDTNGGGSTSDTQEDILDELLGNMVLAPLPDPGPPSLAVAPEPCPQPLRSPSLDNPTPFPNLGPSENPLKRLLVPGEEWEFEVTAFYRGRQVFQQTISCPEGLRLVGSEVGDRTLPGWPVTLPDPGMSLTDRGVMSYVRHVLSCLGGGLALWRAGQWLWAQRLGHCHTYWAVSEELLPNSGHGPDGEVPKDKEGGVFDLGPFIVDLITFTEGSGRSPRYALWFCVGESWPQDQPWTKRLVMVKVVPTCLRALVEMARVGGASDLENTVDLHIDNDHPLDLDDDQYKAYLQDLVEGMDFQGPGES
Sequence | fitted relative affinity
GGCGGTTTCCTTATCCTGACGTGCTAG | 7.82 z-score
GACGGTCTCGGTAGCGGGACGTGCTAG | 0.261 z-score
GACGGACTGGAATATCGGGACGTGCTA | -0.293 z-score
TTAGGACTGGGATATCGGTTAGTGCTA | -0.505 z-score
TCAATTCCCTTTCTCAAACTGTGCTAG | 5.16 z-score
GAGATTTCCATTATTGCTTCGTGCTAG | 2.73 z-score
GGCGGTCTCGGTCTCGGGACGTGCTAG | 0.95 z-score
CACGATATCAGTCTCGAGACGTGCTAG | 1.01 z-score
TTCCAAATGCCCTCTCCATACGTGCTA | 0.805 z-score
TCATGTTTCTGTGTCACACTGTGCTAG | 2.19 z-score
GACGGTATCGGGAATGGGGACGTGCTA | 0.997 z-score
TTAGGACTGGGTCTCCGTTAGTGCTAG | -0.561 z-score
AGATCCATGCTCTGTCGCAGGGTGCTA | 0.447 z-score
TCATCTTTCCACTTGTCACTGTGCTAG | 2.08 z-score
TCATGTTTCTCAAATGTTACTGTGCTA | 0.84 z-score
TCATTTTTCTAACCCATACTGTGCTAG | 2.2 z-score
AACGATCTCAGACTGGAGACGTGCTAG | 0.223 z-score
GACGGTTCCGGTTTCTGGACGTGCTAG | 5 z-score
TTAGGTTTCGACACTGGGTAAGTGCTA | 2.68 z-score
GACGGTCTCGGACTGGAGACGTGCTAG | 0.115 z-score
TTAGATCTCAGTTTCGATTCGTGCTAG | 5.08 z-score
GACGATTTCAGACTCGAGACGTGCTAG | 1.57 z-score
TTAGATTTCAGACTGGATCAGTGCTAG | 0.67 z-score
TCGGGTCTCCCTTGAGGTTTGTGCTAG | -0.0577 z-score
GACGAACTGAGGTATCGAGACGTGCTA | -0.0542 z-score

Series 3
Target: Fragile X messenger ribonucleoprotein 1, C-terminal low-complexity region (Fmr1, Mus musculus, UniProt P35922)
Method: RNA Bind-n-Seq
Form: RNA
Matrix: in vitro
Tested at: 200 nM
Setting: whole 134-nt RNA, ends assumed
Added: 150 mM KCl
Relative to: input library
Direction: higher = stronger binding
Sequence | log2 enrichment
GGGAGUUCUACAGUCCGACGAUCUAACCUUAGAGGAGGAUCUGAUGGAUAUGGCAGUGGACGUGGAUUUGGGGAUGGCUAUAAUGGGUAUGGAGGAGGACCUGGAGGUGGCAAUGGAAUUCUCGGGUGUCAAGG | 0.528
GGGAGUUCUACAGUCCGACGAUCUGGCCCUGGUGGCAUGCGGGGAGGAAGAGGUGGCCUCAUGGAUCGUGGUGGUCCCGGUGGAAUGUUCAGAGGUGGCCCUGGUGGAGACAGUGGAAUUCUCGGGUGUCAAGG | 0.181
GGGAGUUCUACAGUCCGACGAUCCCUGUGCUACACAUCGUAUGUACCGAAUCGGUUUUUUUGGGGUUUUUUUGGUUUUUUUGGAAAGUAUUAUGUUACGCCGUUCGGAUCUGCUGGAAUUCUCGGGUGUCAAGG | -0.268
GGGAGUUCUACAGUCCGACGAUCUAACUUUAGUGGAGGAUCUGAUGGAUAUGGCAGUGGACGUGGAUUUGGGGAUGGCUAUAAUGGGUAUGGAGGAGGACCUGGAGGUGGCAAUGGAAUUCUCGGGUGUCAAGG | 0.284
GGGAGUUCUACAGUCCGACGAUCAAGUCCUGUGCUACACAUCGUAUGUACCGAAUCAAACCCAAAUUUAAACCCCCAAAAAAGUAUUAUGUUACGCCGUUCGGAUCUGCACUUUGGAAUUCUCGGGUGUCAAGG | -0.394
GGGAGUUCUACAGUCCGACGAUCCUGUGCUACACAUCGUAUGUACCGAAUCGGGGAAAAAGGGGAAAAAAAGGGGUUUUUGGGGAAAGUAUUAUGUUACGCCGUUCGGAUCUGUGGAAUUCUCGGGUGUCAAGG | -0.0143
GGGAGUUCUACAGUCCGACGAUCCCUGUGCUACACAUCGUAUGUACCGAAUCGGGGAAAAAGGGGUUUGGGGUUUUUUUGGGGAAAGUAUUAUGUUACGCCGUUCGGAUCUGCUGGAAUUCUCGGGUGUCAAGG | 0.421
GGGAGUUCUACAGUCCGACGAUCAGUCCUGUGCUACACAUCGUAUGUACCGAAUCGGGUUUGGGAAAAAGGGUUUUUGGGAAAGUAUUAUGUUACGCCGUUCGGAUCUGCACUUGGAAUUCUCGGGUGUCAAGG | 0.364
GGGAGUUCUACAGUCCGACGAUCUGGCCCUGGUGGCAUGCGGGGAGGAAGAGGUGGCCUCAUGGAUCGUGGUGGUCCCUGUGGAAUGUUCAGAGGUGGCCGUGGUGGAGACAGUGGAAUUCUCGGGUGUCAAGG | -0.0198
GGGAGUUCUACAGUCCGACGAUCUGGGAGGUGGAUUUUGUUUAUUUUUUUAGCUCAUUUCCAGGGGUGGGAAUUUUUUUUUAAUAUGUGUCAUGAAUAAAGUUGUUUUUGAAGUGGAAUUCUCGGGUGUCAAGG | 0.629

Series 4
Target: RNA binding protein fox-1 homolog 2, RRM domain, GST-SBP tag (RBFOX2, Homo sapiens, UniProt O43251-10, residues 100-194)
Method: RNA Bind-n-Seq
Form: RNA
Matrix: in vitro
Tested at: 365 nM
Setting: natural RNA segment, single round, ends assumed
Relative to: no-protein control
Direction: higher = stronger binding
Target sequence (chain): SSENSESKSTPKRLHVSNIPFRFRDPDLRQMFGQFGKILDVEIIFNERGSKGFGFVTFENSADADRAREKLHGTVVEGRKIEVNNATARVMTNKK
Sequence | RBNS enrichment (R)
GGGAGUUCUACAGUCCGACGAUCAUUUUAUUUGUUUAAUGAUAUGCAUGCUUUUCUUCUGUAAAUAUAUAAUAAAUUUUUGUAGAUAGUCUUGAUGUGUGAUCUUUAUUUUGUAUUUCUCUGUGUAAAACCAGUGGAAUUCUCGGGUGCCAA | 31.7
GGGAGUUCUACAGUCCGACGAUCUCUGCAAGCUGAGGGUGUUUGUUCUAGAUGAGUGUCUCAGGCCACCGGCAACUGCAUGUACCUCCUCCCUUUCUCAUUUCCAAUGAUGUACCCUGUACACGUGUUCAUGCUGGAAUUCUCGGGUGCCAA | 2.43
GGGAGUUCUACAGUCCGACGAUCUAAUGGAAACUUAGAAGGUCAGAACUCUGUAAUGGACAUAAACUGUUAAGUACUCAGGCAUGACUACGCUAUCAGCUACGAAACAUGUUAACUCUCACUAGGAAUAGCUUUGGAAUUCUCGGGUGCCAA | 0.289
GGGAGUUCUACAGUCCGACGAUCGUGCAUAAAGUGAGCUUAAAACUUGCCACUGUUUAGUAAGUUAGCCCCCAUAGAAUGUGACCCUGUCUGCAGAGUCUCAUUUACCCCUCUUUUUCUCAUUGUCAUUUGUUUGGAAUUCUCGGGUGCCAA | 0.325
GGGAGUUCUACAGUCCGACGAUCUUAUUAACAGUUAUUAGGUUGUCAUUUAAAAAUAAAGUUCCUUUAUAUUUCUGUCCCAUCAGGAAAACUGAAGGAUAUGGGGAAUCAUUGGUUAUCUUCCAUUGUGUUUUUGGAAUUCUCGGGUGCCAA | 0.408
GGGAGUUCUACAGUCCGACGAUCUAAUUACGGAUGUAAUUCUGUGUAUCUUACUGUGACUCCGAAAACUGUAGUAUUGGUGUCAUGGGAAUGUACGUUAUUUCCAAAGUCAUUUCAUUAAAGAUGAAAACUUUUGGAAUUCUCGGGUGCCAA | 1.09
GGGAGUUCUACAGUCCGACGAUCCCUGUCACCCCCACUCCCGCCUCAGGGCCAGGCCCAGGCCUCACCACCUGACGCUGCAUGAGACAUUGACACCAGAAAGCCCUCUUGGGGGCACUGCUCCCUACCCCAGGUGGAAUUCUCGGGUGCCAA | 13.6
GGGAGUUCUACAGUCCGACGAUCGACUUGAUAGCCAGGCUGACUGGGUUCUAGGCAGGCCCUCUGGAAAGGUAGCUCACCUAACAAAGCUCCUCCAUCUCAGCAUGCCAGACCCACUUUGAAAUCUCACAGAAUGGAAUUCUCGGGUGCCAA | 0.356
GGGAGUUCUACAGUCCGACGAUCAAAGUUAACCUCAUAAUCUUGGAACUUGGGCUCCAACCCUUAUGAUUGUGGAGUGUUUACUAGAUACAUAAUGAGGUGCUAAGUUGUGGGGAAGUCUCAUGUAACUCAGAUGGAAUUCUCGGGUGCCAA | 0.507
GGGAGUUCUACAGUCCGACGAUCCGCACUGAGAACGCCUGCCAGCUUCCCCAUGCCCUCACUUGGUUUGUGUUUUAGGUUAAGUAGUCAAUGCCCACAUCACUUCACUGUCUCAAGACUGAGCACUUCACUAAUGGAAUUCUCGGGUGCCAA | 0.486
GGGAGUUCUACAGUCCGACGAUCGCUCCUGCAUCGAGUCUGUAAACCAGAGCUGGUUCUCAUGGCCUUCGUCACGAUACCAGGAUACGGAGGGGAGCCCAGGGCCAUCCAUACCCACCCCAGGGUAACGGGGCUGGAAUUCUCGGGUGCCAA | 0.245
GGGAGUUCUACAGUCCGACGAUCAAGUCUUGAAAACAGUGUGAUGCAAUUACUGCUGUUCUAGCCCCCAAAGAGUUUUCUGUGCAAAAUCUUGAGAAUCAAUCAAUAAAGAAAGAUGGAAGGAAGGGAGAAAUUGGAAUUCUCGGGUGCCAA | 0.678
